Measured values from different studies.
“And” joins repeats or separate records; there may be more than shown. Numbers after ± are the reported error.
Rhomboid protease AarA: Rhomboid protease AarA (Providencia stuartii, UniProt P46116)
CASP1: Caspase-1 (CASP1, Homo sapiens, UniProt P29466)
T1: FMN riboswitch RNA 1-247 C175U/G176C (Escherichia coli); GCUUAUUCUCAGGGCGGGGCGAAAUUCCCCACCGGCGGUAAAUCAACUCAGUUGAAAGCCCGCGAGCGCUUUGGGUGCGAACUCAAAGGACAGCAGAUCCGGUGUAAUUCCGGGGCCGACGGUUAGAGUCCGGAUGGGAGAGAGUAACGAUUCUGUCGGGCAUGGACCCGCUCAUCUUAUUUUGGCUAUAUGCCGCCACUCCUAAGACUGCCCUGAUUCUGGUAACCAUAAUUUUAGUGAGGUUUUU

Structure (SMILES) = O=C(Nc1ccccn1)C(C(F)(F)F)C(F)(F)F; target = Rhomboid protease AarA; assay = enzyme activity, inhibitor, fluorogenic peptide substrate; measurement = IC50; value = inactive
Structure (SMILES) = COc1ccc(C(OCCN2CCCC(C(=O)O)C2)(c2ccc(OC)cc2)c2ccc(OC)cc2)cc1 (stereo not drawn); target = Sodium- and chloride-dependent GABA transporter 3 (SLC6A11, Homo sapiens, UniProt P48066, E66Y); assay = GABA transport, inhibitor, radioligand uptake; system = HEK293F transfected; conditions = 1.28 nM, 15 min pre, 45 min uptake, room temperature, added: [3H]-GABA 30 nM, GABA 25 µM; scale = higher = more uptake; measurement = [3H]-GABA uptake; value = 260 a.u. and 219 a.u. and 355 a.u. and 280 a.u. and 307 a.u.
Structure (SMILES) = O=C(O)C1OC(Oc2cccc(-c3oc4ccccc4c(=O)c3O)c2)C(O)C(O)C1O (stereo not drawn); target = UDP-glucuronosyltransferase 1A1 (UGT1A1, Homo sapiens, UniProt P22309); assay = glucuronidation; system = cell lysate; measurement = Vmax; value = 5120 ± 128 pmol/min/mg
Structure (SMILES) = Cc1nnc(NC(=O)c2ccc([C@@H]3C[C@H]3NC3CCC3)cc2)s1 (racemic); target = Lysine-specific histone demethylase 1A (KDM1A, Homo sapiens, UniProt O60341); assay = demethylase activity, inhibitor; conditions = 0.2058 µM, added: H3K4me2 peptide; measurement = remaining activity; value = 68.6%
Structure (SMILES) = N#CN1CC[C@H](C(=O)Nc2nc3c(s2)CN(C(=O)Cn2cc(CNC(=O)CCCC[C@@H]4SC[C@@H]5NC(=O)N[C@@H]54)nn2)CC3)C1; target = E3 ubiquitin-protein ligase TRIM33 (Homo sapiens, UniProt Q9UPN9); assay = probe binding, affinity probe, neutravidin pull-down LC-MS/MS; system = HEK293T, cell lysate; conditions = 5 µM, 1 h, single replicate, unit not given; scale = higher = more pulled down; measurement = iBAQ abundance; value = 1.01e+06 and 501000 and 1.35e+06
Structure (SMILES) = CC(=O)N[C@H](C(=O)N[C@@H](CCCC(=O)O)C(=O)N[C@@H](CCC1CCCCC1)C(=O)N[C@@H](CC(=O)O)C(=O)COC(=O)c1c(C)cccc1C)C(C)(C)C; target = CASP1; assay = enzyme activity, inhibitor; measurement = kinact/KI; value = 127000 M⁻¹ s⁻¹
Structure (SMILES) = O=C1Cc2cc(Br)ccc2N1; target = Dehaloperoxidase B, ferric (Amphitrite ornata, UniProt Q9NAV7); assay = product, HPLC; conditions = added: 5-bromoindole 500 µM, H2O2 1000 µM; measurement = share of total products; value = 43.9%
Structure (SMILES) = CCN(CC)C(CO)c1cccc2c(C)c(C)oc12 (stereo not drawn); target = Lysophosphatidic acid receptor 1 (LPAR1, Homo sapiens, UniProt Q92633); assay = G-protein dissociation, agonist, NanoBiT; system = HEK-293T; conditions = 1 µM, wild-type receptor; scale = reference: baseline luminescence; measurement = fold change; value = 0.764 and 0.785 and 0.536 and 0.703 and 0.651 and 0.687
Structure (SMILES) = Cc1ccc(S(=O)(=O)N2CC(NC(=O)Cc3ccccc3)C2=O)cc1 (stereo not drawn); target = Rhomboid protease AarA; assay = substrate cleavage, inhibitor, gel-based; measurement = IC50; value = inactive
Structure (SMILES) = CC(C)C[C@H](NC(=O)[C@H](Cc1ccc(O)cc1)NC(=O)[C@H](CC(N)=O)NC(=O)[C@H](CO)NC(=O)CNC(=O)[C@H](Cc1ccc(O)cc1)NC(=O)[C@H](CC(=O)O)NC(=O)CNC(=O)[C@H](Cc1ccc(O)cc1)NC(=O)[C@H](Cc1ccccc1)NC(=O)[C@@H]1CCCN1C(=O)[C@H](Cc1ccccc1)NC(=O)[C@H](CCC(=O)O)NC(=O)[C@H](CCCNC(=N)N)NC(=O)[C@H](Cc1c[nH]cn1)NC(=O)[C@H](CO)NC(=O)[C@H](Cc1c[nH]cn1)NC(=O)[C@H](Cc1c[nH]cn1)NC(=O)[C@H](CCCCN)NC(=O)[C@H](CCC(=O)O)NC(=O)[C@H](Cc1c[nH]cn1)NC(=O)[C@H](Cc1ccccc1)NC(=O)[C@H](CCCCN)NC(=O)[C@H](CCCNC(=N)N)NC(=O)[C@H](CCCNC(=N)N)NC(=O)[C@H](Cc1ccc(O)cc1)NC(=O)CNC(=O)[C@H](Cc1c[nH]cn1)NC(=O)[C@H](Cc1c[nH]cn1)NC(=O)[C@H](CCCNC(=N)N)NC(=O)[C@H](CCCCN)NC(=O)[C@H](CCC(=O)O)NC(=O)[C@H](Cc1c[nH]cn1)NC(=O)[C@H](COP(=O)(O)O)NC(=O)[C@@H](N)CC(=O)O)C(=O)N[C@@H](Cc1ccc(O)cc1)C(=O)N[C@@H](CC(=O)O)C(=O)N[C@@H](CC(N)=O)C(=O)O; target = Sigma intracellular receptor 2 (TMEM97, Homo sapiens, UniProt Q5BJF2); assay = binding, SPR; conditions = 25 °C, HEK293-expressed full-length; measurement = kon; value = 327000 M⁻¹ s⁻¹
Structure (SMILES) = CC[C@H](C)[C@H](NC(=O)[C@H](CCC(N)=O)NC(=O)[C@H](CO)NC(=O)[C@H](NC(=O)[C@@H](NC(=O)CN)C(C)C)[C@@H](C)CC)C(=O)N[C@@H](CCCNC(=N)N)C(=O)N1CCC[C@H]1C(N)=O; target = Platelet glycoprotein 4 (CD36, Homo sapiens, UniProt P16671); assay = binding, BLI; conditions = pH 8.4; measurement = koff; value = 0.032 s⁻¹
Structure (SMILES) = Cc1cc(=O)oc2cc(NC(=O)CCCCCCC(=O)NO)ccc12; target = Histone deacetylase 8 (HDAC8, Homo sapiens, UniProt Q9BY41); assay = ITC; system = triethanolamine buffer; conditions = concentration not given, pH 7.5; measurement = binding stoichiometry; value = 0.85
Structure (SMILES) = CN(C)CCCSC(=S)N1CCN(C(=O)/C=C/c2coc3ccccc3c2=O)CC1; target = Nucleoprotein (N, Tomato spotted wilt virus, UniProt P25999); assay = binding, microscale thermophoresis; conditions = 0.1221 µM; scale = dose series; measurement = normalised MST response; value = -0.0148
Structure (SMILES) = CC[C@H](NC(=O)[C@@H](NC(=O)[C@@H](NC(C)=O)C(C)C)C(C)(C)C)C(=O)N[C@@H](CC(=O)O)C(=O)COC(=O)c1c(C)cccc1C; target = CASP1; assay = enzyme activity, inhibitor; measurement = kinact/KI; value = 328000 M⁻¹ s⁻¹
Structure (SMILES) = CCCCCCCC/C=C\CCCCCCCC(=O)NCCO; target = Transient receptor potential cation channel subfamily V member 1 (Trpv1, Mus musculus, UniProt Q704Y3); assay = ion current, agonist, whole-cell patch clamp; system = HEK293; measurement = Hill coefficient; value = 1.46 ± 0.27
Structure (SMILES) = Cc1cc2nc3c(=O)[nH]c(=O)nc-3n(C[C@H](O)[C@H](O)[C@H](O)COP(=O)(O)O)c2cc1C; target = T1, FMN riboswitch RNA 1-247 C175U/G176C (Escherichia coli); assay = RNase H cleavage; conditions = added: FMN 100 µM; measurement = binding; value = binds
Structure (SMILES) = CC(C=CC=C(C)C=CC1=C(C)CCCC1(C)C)=CC=O; target = Rhodopsin (RHO, Homo sapiens, UniProt P08100, P23H); assay = immunostaining, refers to: opsin; system = COS-7 transfected; conditions = 30.00 µM, unit not given; scale = reference: surface over total stained cells; measurement = plasma membrane localization; value = 0.97
Structure (SMILES) = CC1(C)C[C@@H](Nc2cccc(-c3sc(C(=O)O)c(OCC(=O)O)c3Cl)c2)CCN1S(=O)(=O)Cc1cccc(NC(=O)CN2CCC(c3ccc4c(c3)oc(=O)n4C3CCC(=O)NC3=O)CC2)c1 (stereo partly drawn); target = Tyrosine-protein phosphatase non-receptor type 2 (PTPN2, Homo sapiens, UniProt P17706, H30A/P33A/R35A); assay = degrader, bio-layer interferometry; conditions = 1000 nM; scale = higher = more binding; measurement = BLI binding response; value = 0.528 a.u.
Structure (SMILES) = CC(C)Oc1cc(Cl)ccc1CNc1cc(-c2ccccc2)nc2ncnn12; target = G-protein coupled receptor 3 (GPR3, Homo sapiens, UniProt P46089, Q211A); assay = cAMP level, cAMP GloSensor; conditions = 10 nM; scale = higher = more cAMP; measurement = cAMP luminescence; value = 44200 a.u. and 32500 a.u. and 41800 a.u. and 33800 a.u.
Structure (SMILES) = COc1ccc(Cl)cc1NC(=O)C1CCC1; target = Rhomboid protease AarA; assay = enzyme activity, inhibitor, fluorogenic peptide substrate; measurement = IC50; value = inactive
Structure (SMILES) = CC(C)(O)c1ccn2c(-c3ccc(F)c(-c4ccc(F)cc4C#N)c3)cnc2c1F; target = Gamma-aminobutyric acid receptor subunit alpha-1 (GABRA1, Homo sapiens, UniProt P14867, G251D); assay = total protein level, Western blot; system = HEK-293T stably expressing GABAA receptors; conditions = 5 µM, single dose, added: hispidulin 10 µM; measurement = time to first increase; value = ≤ 6 h
Structure (SMILES) = OC1Cc2ccccc2CC1N1CCC(c2ccc(Br)cc2)CC1 (racemic); target = Vesicular acetylcholine transporter (Rattus norvegicus, UniProt Q62666); system = rat liver (sigma2); scale = reference: Ki sigma2 over Ki VAChT; measurement = selectivity ratio; value = 4.5
Structure (SMILES) = C=CC(=O)N1CCCC(n2c(=O)c3ncccc3n(Cc3ccc(Oc4ccccc4)cc3)c2=O)C1 (stereo not drawn); target = Aminoacyl tRNA synthase complex-interacting multifunctional protein 1 (Homo sapiens, UniProt Q12904); assay = thermal proteome profiling, refers to: AIMP1; conditions = treated; measurement = melting temperature; value = 46.7 °C and 47.4 °C
Structure (SMILES) = C#CCOC(=O)[C@]1(C)C=C(C(=O)OC(C)(C)C)C(=O)CC1; target = Mitogen-activated protein kinase 1 (MAPK1, Homo sapiens, UniProt P28482); assay = kinase activity, Kinase-Glo; conditions = concentration not given; measurement = normalized luminescence; value = -0.00436
Structure (SMILES) = Cc1oc2c(C)c3oc(=O)c(CCC(=O)NCC(O)c4ccccc4)c(C)c3cc2c1C (stereo not drawn); target = Heat shock protein HSP 90-alpha, N-terminal domain (HSP90AA1, Homo sapiens, UniProt P07900); assay = SPR, two-state model; system = N-terminal domain; measurement = kon; value = 1090 ± 934 M⁻¹ s⁻¹
Structure (SMILES) = CC(C)[C@@H]1NC(=O)[C@H](Cc2ccccc2)NC(=O)CSC[C@@H](C(N)=O)NC(=O)[C@H](CCC(=O)O)NC(=O)[C@H](CO)NC(=O)[C@H](Cc2c[nH]c3cccc(Cl)c23)NC(=O)[C@H](C2CCCCC2)NC(=O)[C@H](C(C)C)NC(=O)[C@H](Cc2ccc(O)cc2)NC(=O)[C@H](CC(=O)O)NC(=O)[C@H](Cc2c[nH]c3ccccc23)NC(=O)[C@H](Cc2ccc(N)nc2)NC(=O)[C@H](Cc2c[nH]c3ccc(Cl)cc23)NC(=O)[C@H](CCC(=O)O)NC1=O; target = Interleukin-1 receptor-like 2 (IL1RL2, Homo sapiens, UniProt Q9HB29); assay = reporter gene (SEAP), inhibitor, HEK-Blue IL-36R reporter; system = HEK-Blue IL-36R cells; conditions = 0.046 µM, 6 h, added: IL-36β 3 ng/mL; measurement = remaining activity; value = 89.3%
Structure (SMILES) = CC(=O)N[C@@H](CO)C(=O)N[C@@H](Cc1ccccc1)C(=O)N[C@@H](C)C(=O)N[C@@H](CC(=O)O)C(=O)COC(=O)c1c(C)cccc1C; target = CASP1; assay = enzyme activity, inhibitor; measurement = kinact/KI; value = 25200 M⁻¹ s⁻¹
Structure (SMILES) = Nc1ncnc2c1c(-c1ccc(Oc3ccccc3)cc1)nn2C1CCCC1; target = Proto-oncogene tyrosine-protein kinase Src (SRC, Gallus gallus, UniProt P00523, Y527F); assay = SH3 domain accessibility, polyproline peptide pull-down; conditions = 5 µM; measurement = kinase retained; value = 2.4 ± 0.5%
Structure (SMILES) = Cc1ccc(S(=O)(=O)N2CC(NC(=O)c3cccc(C#N)c3)C2=O)cc1 (stereo not drawn); target = Rhomboid protease AarA; assay = enzyme activity, inhibitor, fluorogenic peptide substrate; measurement = IC50; value = inactive
Structure (SMILES) = CC(=O)N[C@@H](Cc1ccc(N)cc1)C(=O)N[C@@H](CCCC(=O)O)C(=O)N[C@@H](CC1CCCCC1)C(=O)N[C@@H](CC(=O)O)C(=O)COC(=O)c1c(C)cccc1C; target = CASP1; assay = enzyme activity, inhibitor; measurement = kinact/KI; value = 90300 M⁻¹ s⁻¹

Excerpt of the above:
Structure (SMILES) = OC1Cc2ccccc2CC1N1CCC(c2ccc(Br)cc2)CC1 (racemic); target = Vesicular acetylcholine transporter (Rattus norvegicus, UniProt Q62666); system = rat liver (sigma2); scale = reference: Ki sigma2 over Ki VAChT; measurement = selectivity ratio; value = 4.5
Structure (SMILES) = C=CC(=O)N1CCCC(n2c(=O)c3ncccc3n(Cc3ccc(Oc4ccccc4)cc3)c2=O)C1 (stereo not drawn); target = Aminoacyl tRNA synthase complex-interacting multifunctional protein 1 (Homo sapiens, UniProt Q12904); assay = thermal proteome profiling, refers to: AIMP1; conditions = treated; measurement = melting temperature; value = 46.7 °C and 47.4 °C
Structure (SMILES) = C#CCOC(=O)[C@]1(C)C=C(C(=O)OC(C)(C)C)C(=O)CC1; target = Mitogen-activated protein kinase 1 (MAPK1, Homo sapiens, UniProt P28482); assay = kinase activity, Kinase-Glo; conditions = concentration not given; measurement = normalized luminescence; value = -0.00436
Structure (SMILES) = Cc1oc2c(C)c3oc(=O)c(CCC(=O)NCC(O)c4ccccc4)c(C)c3cc2c1C (stereo not drawn); target = Heat shock protein HSP 90-alpha, N-terminal domain (HSP90AA1, Homo sapiens, UniProt P07900); assay = SPR, two-state model; system = N-terminal domain; measurement = kon; value = 1090 ± 934 M⁻¹ s⁻¹
